Measured values pooled from the literature.
Every numbered part comes from another study and shows a few of its results, in no order.

Block 1
Target: Sal-like protein 4, full length isoform A (SALL4, Homo sapiens, UniProt Q9UJQ4, residues 1-1053)
UniProt Q9UJQ4, sequence (whole entry, looked up): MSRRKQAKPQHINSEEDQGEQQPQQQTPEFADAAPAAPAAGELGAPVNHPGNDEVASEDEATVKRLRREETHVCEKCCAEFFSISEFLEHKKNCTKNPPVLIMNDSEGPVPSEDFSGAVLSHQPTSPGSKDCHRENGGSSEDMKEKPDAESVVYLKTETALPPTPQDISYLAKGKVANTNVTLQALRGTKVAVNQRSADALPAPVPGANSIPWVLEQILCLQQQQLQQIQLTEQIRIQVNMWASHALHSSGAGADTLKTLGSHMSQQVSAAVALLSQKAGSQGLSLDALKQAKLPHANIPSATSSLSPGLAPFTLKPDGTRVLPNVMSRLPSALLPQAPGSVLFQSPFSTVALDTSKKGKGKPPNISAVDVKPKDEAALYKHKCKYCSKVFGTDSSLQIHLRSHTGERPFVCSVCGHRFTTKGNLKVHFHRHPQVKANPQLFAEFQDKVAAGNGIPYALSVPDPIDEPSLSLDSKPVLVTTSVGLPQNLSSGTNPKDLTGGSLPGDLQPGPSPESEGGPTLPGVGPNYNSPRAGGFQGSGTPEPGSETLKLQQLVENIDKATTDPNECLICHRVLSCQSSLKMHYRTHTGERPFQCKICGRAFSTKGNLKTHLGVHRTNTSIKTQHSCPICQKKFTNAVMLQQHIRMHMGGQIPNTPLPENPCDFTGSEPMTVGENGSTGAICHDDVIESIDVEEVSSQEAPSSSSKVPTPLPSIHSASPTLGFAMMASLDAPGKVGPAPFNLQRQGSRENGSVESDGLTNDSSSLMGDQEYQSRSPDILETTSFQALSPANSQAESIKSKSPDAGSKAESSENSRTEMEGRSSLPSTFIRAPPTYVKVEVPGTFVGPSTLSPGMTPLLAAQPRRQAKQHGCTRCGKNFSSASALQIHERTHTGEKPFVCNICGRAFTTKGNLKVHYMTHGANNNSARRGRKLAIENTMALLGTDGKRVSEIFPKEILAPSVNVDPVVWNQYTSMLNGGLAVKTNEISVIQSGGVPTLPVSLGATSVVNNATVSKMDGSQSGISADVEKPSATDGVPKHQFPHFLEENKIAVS
Method: universal PBM
Form: double-stranded DNA, one strand shown
Medium: in vitro
Tested at: 600 nM
Setting: 8-mer, flanks averaged, mean of replicates
Reading: higher = stronger binding
`ACAATGAG` gave an E-score of 0.0839.
With `AAAGAAAT` the E-score was 0.342.
For `CTACGATA`, the E-score was 0.213.
`CCCACGTC` gave an E-score of -0.248.
`ACGTCCAG` gave an E-score of -0.2.

Block 2
Target: Histone acetyltransferase KAT6A, both winged helices, GST fusion (KAT6A, Homo sapiens, UniProt Q92794, residues 1-181)
Method: protein binding microarray
Form: double-stranded DNA, one strand shown
Medium: in vitro
Tested at: not given
Setting: 8-mer, flanks averaged, mean of 2 arrays, mostly near background
Reference: not given
Reading: higher = stronger binding
Construct (chain): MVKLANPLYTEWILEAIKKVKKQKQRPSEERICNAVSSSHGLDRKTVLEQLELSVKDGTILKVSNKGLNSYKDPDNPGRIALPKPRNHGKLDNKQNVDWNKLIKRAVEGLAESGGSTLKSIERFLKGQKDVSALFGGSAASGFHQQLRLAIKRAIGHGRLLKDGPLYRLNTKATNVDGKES
`ATAAAGGA` has an E-score of -0.182.
For `GGACCCAA`, the E-score was -0.0684.
`GAGATCAA` gave an E-score of -0.115.
`GTTCACTA` has an E-score of 0.0467.
The E-score of `AGGTAAAG` is reported as -0.0847.

Mixed results
IRF5 S451D/S453D/S456D/S462D full length, phosphomimetic: Interferon regulatory factor 5, full length, phosphomimetic (IRF5, Homo sapiens, UniProt Q13568-2, residues 1-514, S451D/S453D/S456D/S462D)
IRF7 S101K/S471D/S472D/S475D/S476D/S477D/S483D/S484D/S487D full length, phosphomimetic: Interferon regulatory factor 7, full length, phosphomimetic (IRF7, Homo sapiens, UniProt Q92985, residues 1-503, S101K/S471D/S472D/S475D/S476D/S477D/S483D/S484D/S487D)
UniProt Q92985, sequence (whole entry, unmodified, looked up): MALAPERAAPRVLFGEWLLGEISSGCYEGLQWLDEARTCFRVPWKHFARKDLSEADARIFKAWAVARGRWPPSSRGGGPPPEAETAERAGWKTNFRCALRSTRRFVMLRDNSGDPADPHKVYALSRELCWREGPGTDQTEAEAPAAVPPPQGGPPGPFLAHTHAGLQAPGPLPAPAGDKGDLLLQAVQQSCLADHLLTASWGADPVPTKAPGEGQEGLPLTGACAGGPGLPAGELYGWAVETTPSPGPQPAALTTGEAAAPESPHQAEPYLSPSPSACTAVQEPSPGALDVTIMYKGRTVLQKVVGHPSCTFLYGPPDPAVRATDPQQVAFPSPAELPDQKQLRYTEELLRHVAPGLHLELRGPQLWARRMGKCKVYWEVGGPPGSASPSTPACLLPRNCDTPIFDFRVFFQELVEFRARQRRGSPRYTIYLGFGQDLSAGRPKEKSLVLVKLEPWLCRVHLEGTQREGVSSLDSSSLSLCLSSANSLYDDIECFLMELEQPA
`GCCTAGCACTTAGATATCGGGTATTGATTAGTGCTAGTCTTGATTCGCTTGACGCTGCTG` — result for “fitted relative affinity”: 0.566 z-score (IRF5 S451D/S453D/S456D/S462D full length, phosphomimetic; protein-binding microarray; double-stranded DNA, one strand shown, in vitro; 940 nM top, 60-bp whole probe, added: salmon DNA 0.4 mg/ml; reference: random background probes, higher = stronger binding).
`PhoQ, residues 284 288 289 292 302 303 TTCLQL` gave a fold induction of 1.44 (PhoP, residues 12 14 15 18 19 TPWLV (Escherichia coli, UniProt P23836); Sort-seq, refers to: YFP reporter; E. coli; PhoQ-PhoP variant library, added: 10 µM Mg2+; reference: high Mg2+ state, higher = stronger signaling).
`GCCTAGCACATTCCTCTCACCTCGGCCTCGTGCTAGGTCTTGATTCGCTTGACGCTGCTG` has a log fluorescence of 1.43 z-score (IRF7 S101K/S471D/S472D/S475D/S476D/S477D/S483D/S484D/S487D full length, phosphomimetic; protein-binding microarray; double-stranded DNA, one strand shown, in vitro; 250 nM, 60-bp whole probe, added: salmon DNA 0.4 mg/ml; reference: random background probes, higher = stronger binding).
`GCCTAGCACTTAGGTATCGACTATCAGTTAGTGCTAGTCTTGATTCGCTTGACGCTGCTG`: “fitted relative affinity” 5.48 z-score (IRF5 S451D/S453D/S456D/S462D full length, phosphomimetic; protein-binding microarray; double-stranded DNA, one strand shown, in vitro; 940 nM top, 60-bp whole probe, added: salmon DNA 0.4 mg/ml; reference: random background probes, higher = stronger binding).
`GCCTAGCACGACGGACTGCTTCTACTGACGTGCTAGGTCTTGATTCGCTTGACGCTGCTG` has a log fluorescence of -0.503 z-score (IRF7 S101K/S471D/S472D/S475D/S476D/S477D/S483D/S484D/S487D full length, phosphomimetic; protein-binding microarray; double-stranded DNA, one strand shown, in vitro; 250 nM, 60-bp whole probe, added: salmon DNA 0.4 mg/ml; reference: random background probes, higher = stronger binding).
